Measured values of several laboratories.
Every numbered part comes from another study and shows a few of its results, in no order. Substitutions count along the parent as printed.

Set 1
Target: CCNA1, cyclin fold, Cln2 fusion (human)
Method: yeast growth competition, sequencing
Medium: yeast
Setting: weak parent motif
Baseline: not given
Direction: higher = stronger binding
Quantity: normalised enrichment score
Starting sequence: WEE1 docking peptide (human); HKTFRKLRLFDTP; partner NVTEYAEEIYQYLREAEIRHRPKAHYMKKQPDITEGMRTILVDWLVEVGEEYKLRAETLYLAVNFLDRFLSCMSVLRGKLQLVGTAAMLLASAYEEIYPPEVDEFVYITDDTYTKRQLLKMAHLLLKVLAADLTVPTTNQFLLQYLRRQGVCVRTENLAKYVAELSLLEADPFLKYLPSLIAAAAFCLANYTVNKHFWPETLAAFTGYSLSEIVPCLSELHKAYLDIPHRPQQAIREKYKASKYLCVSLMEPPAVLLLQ
R5M: 0.286
T3R: 0.237
L9V: 0.365
P13I: 0.381
F4T: 0.544
R8T: 0.369
P13Q: 0.224
K2D: 0.317
D11C: 0.499
R8E: 0.598
R5C: -0.114
P13V: 0.432
L9N: 0.3
T3S: -0.0286
L7G: 0.775
K6Q: 0.309
K6D: 0.46

Set 2
Target: Phosphate system positive regulatory protein PHO4, full length, GST-tagged (PHO4, Saccharomyces cerevisiae, UniProt P07270, residues 1-312)
Method: competition protein-binding microarray
Molecule type: double-stranded DNA, one strand shown
Medium: in vitro
Tested at: 2 µM
Setting: whole 60-bp probe, lowest competitor level
Together with: Cbf1 competitor, 0.05 µM
Direction: higher = stronger binding
Quantity: fluorescence intensity
All sequences stand within: … GTCTTGATTCGCTTGACGCTGCTG
Residues (chain): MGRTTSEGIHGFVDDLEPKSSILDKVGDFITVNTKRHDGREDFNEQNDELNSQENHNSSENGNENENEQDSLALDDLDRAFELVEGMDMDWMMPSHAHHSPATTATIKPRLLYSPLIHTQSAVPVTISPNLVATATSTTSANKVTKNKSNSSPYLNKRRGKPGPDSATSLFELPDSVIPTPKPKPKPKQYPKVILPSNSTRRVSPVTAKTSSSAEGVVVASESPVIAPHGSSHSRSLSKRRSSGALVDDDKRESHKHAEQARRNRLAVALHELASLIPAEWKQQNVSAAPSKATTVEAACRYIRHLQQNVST
TCATTAAAAACGCTTCACGTGATGGTTACTTGCATA: 14200 a.u.
AAATTACTAAGTTGTCACACCACTTACCCCGTATGA: 5040 a.u.
AACTAAGAGAAATTGAACGTGGTCGCGATCTTTTAG: 10400 a.u.
AAAGCGGTAATTTGCCCAGTGGGTGCAGATATCTAT: 4230 a.u.
GGAAAGCAACGAGTGATCGTGACGGCATAATTGCCT: 6110 a.u.
GTCTATCTTGACCAGCGCGTGGTCGGCCGCCAATGC: 9420 a.u.
AGCAATACCTTTCGGCACGTTCTTGAAAATTCCACA: 13800 a.u.
TTGCTGTCTTCTACCCACGTCATATCAGTGGTATTC: 5200 a.u.
GACCAGCACCGCCGTCACAATGAGTAATGATACCAT: 4200 a.u.
CAACGGCGCCTCGGCCACGTTGAGTGAACCTTTGGC: 12200 a.u.
TATGGGTTGTGAAGTCACGTGGTTTGGGTTCAAATC: 13800 a.u.

Set 3
Target: ABI1, truncated, D143A, DHFR fusion (Arabidopsis thaliana)
Method: DHFR PCA, deep sequencing
Medium: yeast
Setting: methotrexate growth selection, single substitutions
Together with: (+)-ABA 0.39 µM
Baseline: wild-type fitted maximum
Direction: higher = stronger binding
Quantity: relative binding score
Starting sequence: PYL1, truncated, DHFR fusion (Arabidopsis thaliana); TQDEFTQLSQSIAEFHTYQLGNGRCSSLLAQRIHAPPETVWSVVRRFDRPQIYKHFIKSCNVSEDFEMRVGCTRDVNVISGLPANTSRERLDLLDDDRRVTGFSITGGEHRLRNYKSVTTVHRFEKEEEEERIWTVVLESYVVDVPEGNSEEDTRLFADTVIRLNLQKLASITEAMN
C25E: 1.84%
L8G: -6.26%
K58V: -4.42%
A175H: 30%
M68R: -3.72%
L93H: 17.6%
G107R: 2.73%
D97C: 17.6%
V137Y: 0.928%
N177C: 62.8%
Y53F: 4.06%
T73W: 25.2%
V118L: 3.17%

Single results of other studies
PhoQ, residues 284 288 289 292 302 303 SSTLLI  fold induction (PhoP, residues 12 14 15 18 19 NQGLL (Escherichia coli, UniProt P23836); Sort-seq, item: YFP reporter; E. coli; PhoQ-PhoP variant library, together with: 10 µM Mg2+; baseline: high Mg2+ state, higher = stronger signaling): 1.12

Excerpt of the above (set 2):
GTCTATCTTGACCAGCGCGTGGTCGGCCGCCAATGC: 9420 a.u.
AGCAATACCTTTCGGCACGTTCTTGAAAATTCCACA: 13800 a.u.
TTGCTGTCTTCTACCCACGTCATATCAGTGGTATTC: 5200 a.u.
GACCAGCACCGCCGTCACAATGAGTAATGATACCAT: 4200 a.u.
CAACGGCGCCTCGGCCACGTTGAGTGAACCTTTGGC: 12200 a.u.
TATGGGTTGTGAAGTCACGTGGTTTGGGTTCAAATC: 13800 a.u.
